Assay results pooled from the literature.
Every numbered part comes from another study and shows a few of its results, in no order.

Set 1 — technique: protein binding microarray; form: double-stranded DNA, one strand shown; sample: in vitro; concentration: not given; reference: not given; direction: higher = stronger binding
Target: Histone acetyltransferase KAT6A, both winged helices, GST fusion (KAT6A, Homo sapiens, UniProt Q92794, residues 1-181)
Setting: 8-mer, flanks averaged, mean of 2 arrays, mostly near background
Target sequence (chain): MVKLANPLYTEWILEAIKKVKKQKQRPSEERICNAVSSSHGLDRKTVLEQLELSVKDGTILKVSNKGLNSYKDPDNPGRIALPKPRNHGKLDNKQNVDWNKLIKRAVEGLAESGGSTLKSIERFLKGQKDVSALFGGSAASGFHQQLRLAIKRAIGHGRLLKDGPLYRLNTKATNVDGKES
The E-score of `ACTTACCG` is reported as 0.184.
For `CAAACTGC`, the E-score was 0.0358.
With `GGGCAGGA` the E-score was -0.142.
`GGAGTGCC` has an E-score of 0.00624.
The E-score of `AACGCGCT` is reported as 0.261.
The E-score of `AGCCTCCT` is reported as -0.063.
`ACCTTCAG` has an E-score of -0.127.
With `AGAAGTTG` the E-score was -0.246.
For `ATGCCCCA`, the E-score was -0.277.
The E-score of `CCTTGACG` is reported as 0.0958.
The E-score of `ATGATCGA` is reported as -0.0851.
For `CATTCCTA`, the E-score was -0.149.
The E-score of `CTAACAAC` is reported as -0.0378.
The E-score of `CTGCTTAA` is reported as -0.0968.
`TTCCCGAA` has an E-score of 0.0395.
`CATTCGCA` gave an E-score of 0.103.
With `GGGGTCCA` the E-score was -0.0626.
With `ATGCAGAA` the E-score was -0.0198.
`AACGAAGC` has an E-score of -0.0706.
`CGGCTCAA` has an E-score of 0.118.
With `CTCAGAGA` the E-score was -0.0456.
For `CTATAATA`, the E-score was -0.0192.
`ATGCGACG` has an E-score of 0.28.
The E-score of `AGCTGTTC` is reported as -0.0603.
With `TACGAGAA` the E-score was 0.0166.

Set 2 — technique: aptamer microarray, sandwich; form: DNA with 2'F-ANA; sample: in vitro; concentration: 200 nM; with: Cy3 exosite-II aptamer, 400 nM; direction: higher = stronger binding; strand: GGTTGGTGTGGTTGG
Target: Prothrombin, mature alpha-thrombin (F2, Homo sapiens, UniProt P00734)
Setting: whole 15-mer aptamer, many near background
`2'F-ANA at 1 2 3 4 5 9 10`: “mean fluorescence intensity” 44.9 a.u.
`2'F-ANA at 1 2 3 6 7 8 12 15`: “mean fluorescence intensity” 380 a.u.
Under “mean fluorescence intensity”, `2'F-ANA at 1 3 6 7 8 9 10 11 13 14 15` is recorded as 66.5 a.u.
Under “mean fluorescence intensity”, `2'F-ANA at 2 4 5 7 8 11 13` is recorded as 65 a.u.
`2'F-ANA at 1 2 3 8 9 11 13 15` — result for “mean fluorescence intensity”: 170 a.u.
Under “mean fluorescence intensity”, `2'F-ANA at 2 6 7 8 9 11 12 13 15` is recorded as 444 a.u.
`2'F-ANA at 1 3 4 5 6 7 8 10 12 13 14 15` — result for “mean fluorescence intensity”: 47.4 a.u.
`2'F-ANA at 2 3 5 7 8 10 11 14 15` — result for “mean fluorescence intensity”: 54.3 a.u.
`2'F-ANA at 1 5 13`: “mean fluorescence intensity” 48.6 a.u.
`2'F-ANA at 2 3 5 6 8 9 10 11 12 13 14`: “mean fluorescence intensity” 51.2 a.u.
`2'F-ANA at 2 5 7 9 10 12 15`: “mean fluorescence intensity” 49.6 a.u.
`2'F-ANA at 4 7 8 10 12` — result for “mean fluorescence intensity”: 166 a.u.
For `2'F-ANA at 1 6 7 8 11 12 13`, “mean fluorescence intensity” read 280 a.u.
`2'F-ANA at 2 6 10 11 12 13`: “mean fluorescence intensity” 146 a.u.
Under “mean fluorescence intensity”, `2'F-ANA at 2 3 4 6 7 8` is recorded as 707 a.u.
`2'F-ANA at 2 3 4 5 6 8 14 15` — result for “mean fluorescence intensity”: 55.8 a.u.

Set 3 — technique: RNA Bind-n-Seq; form: RNA; sample: in vitro; concentration: 365 nM; reference: no-protein control; direction: higher = stronger binding
Target: RNA binding protein fox-1 homolog 2, RRM domain, GST-SBP tag (RBFOX2, Homo sapiens, UniProt O43251-10, residues 100-194)
Setting: natural RNA segment, single round, ends assumed
All sequences stand within: GGGAGUUCUACAGUCCGACGAUC … UGGAAUUCUCGGGUGCCAA
Construct (chain): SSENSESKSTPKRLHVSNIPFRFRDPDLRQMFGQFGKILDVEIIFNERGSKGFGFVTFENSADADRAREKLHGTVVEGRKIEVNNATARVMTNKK
Under “RBNS enrichment (R)”, `UUCAGGCUGCCUAAGACAUGUAACGAAACACUUCAAUAAUUGUCCAUGAGGAGAAAAAAAGCAUGUGUCAUGCAUGAAGGAAACUGAACUUGAGGUGGCCUCCUUGCUUG` is recorded as 3.22.
`CAAUGGCCAGGUACUACACUGUCGGGGAUUAUAGGUGGACUAACCACGUCUCUGCCUCCUAAAUUCCUGUAUGGACUUGAGAUGGCUUCAUUGAAAAACCACACGGCAGA` — result for “RBNS enrichment (R)”: 0.256.
Under “RBNS enrichment (R)”, `GUUUUGUUAGGCUUUGAGUGUCUAUUCGGUUCCUAUCAAAGCUAGUGUGUAUUCCUUUCCACUACAGAAGAACCAUCACUCUCAUGGGUGUCCCAGCCUCCAGCAAGGGC` is recorded as 0.25.
`CACCACCUCUGCCAUGCCCUGUAUCCCGAGAGCUGCACACACUGCUUCCAGAUUGCUGGUUCCAGAAGAUGUAAUUUGCCACUGUGUGCUGCACGGCUAGGGAGUGUCAU`: “RBNS enrichment (R)” 0.675.
For `GCACAAACAGUUGAACUUAGAAGUAGCAGUAUUGGCUUUAUGUAAUAAAGGAAGCAUUUUUGACUUACCUCUCGUGUAAUUUUCAUGUGUGAAUUGGGAAUACAGGAUUU`, “RBNS enrichment (R)” read 0.713.
Under “RBNS enrichment (R)”, `CACAGCCUAGAGUUCAGGAAAGUUAAUCCACACAGAAGCACAAUUUUGUCCUCUUCCAGACACUGUUGCCUCUACCUAGUUAGACAAAUAGGAUUUGACCUACAUUCUGU` is recorded as 0.345.
`GAUGGAUGAUUGCUUUUAACUACUGCCAGCUGAUGUCUCUCAGCCCCUGCCCUCAUACAAGAUUUUUCUCAGCCUUCAGCCUACCACUGCAGAAUCCGAUGUGACCCACC` — result for “RBNS enrichment (R)”: 0.611.
Under “RBNS enrichment (R)”, `UGUGUACCCACUCCUCACUGCCCCACCAGCCACCUCUUGGGCAUGCUCAGCCCUUCCUAGAAGAGUCAGGAAGGGAAAGCCAGAAGGGGCACGCCUGCCCAGCCUCGCAU` is recorded as 1.29.

Set 4 — technique: RNAcompete; form: RNA; sample: in vitro; concentration: 20 nM; setting: 7-mer, probes averaged, single round; reference: mean of 7-mers; direction: higher = stronger binding
Target: PABPC1L2, full length, GST fusion (mouse, UniProt A0ABA7IW68)
Residues (chain): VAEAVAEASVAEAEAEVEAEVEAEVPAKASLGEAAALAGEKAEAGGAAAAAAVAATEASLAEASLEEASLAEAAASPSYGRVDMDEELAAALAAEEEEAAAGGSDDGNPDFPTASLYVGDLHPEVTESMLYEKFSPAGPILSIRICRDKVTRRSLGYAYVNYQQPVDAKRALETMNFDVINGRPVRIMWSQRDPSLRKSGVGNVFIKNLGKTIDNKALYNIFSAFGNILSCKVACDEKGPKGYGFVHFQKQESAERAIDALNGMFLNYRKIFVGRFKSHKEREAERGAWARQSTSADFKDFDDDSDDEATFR
`AGGUAGU` has a 7-mer Z-score of -0.217.
The 7-mer Z-score of `CUGCCGG` is reported as -0.199.
`UUCUUGC` has a 7-mer Z-score of -0.467.
`GACGGCU` gave a 7-mer Z-score of 0.00798.
For `UUCCUAC`, the 7-mer Z-score was -0.273.
With `CUCACGG` the 7-mer Z-score was -0.217.
`UGACUCG` has a 7-mer Z-score of -0.242.
`ACGCAGC` has a 7-mer Z-score of -0.275.
`UUUUCAG` gave a 7-mer Z-score of -0.222.
With `GACAUGA` the 7-mer Z-score was 0.0424.
`UGCGAGC` gave a 7-mer Z-score of -0.209.
`UCCAUAC` has a 7-mer Z-score of -0.164.
For `AGCUAAC`, the 7-mer Z-score was -0.324.
For `CGAUUGU`, the 7-mer Z-score was -0.219.
The 7-mer Z-score of `GUGUCAC` is reported as -0.148.
For `UGGGCGG`, the 7-mer Z-score was 0.175.
With `GCUGUCA` the 7-mer Z-score was -0.15.
The 7-mer Z-score of `AAGCCUU` is reported as -0.05.
`UGUUCCA` gave a 7-mer Z-score of -0.304.
For `UAGCUCA`, the 7-mer Z-score was -0.242.
With `AAACCCU` the 7-mer Z-score was 0.452.
`GCGUAAC` has a 7-mer Z-score of -0.249.
`CACACGC` has a 7-mer Z-score of -0.193.
